# Measured values gathered from unrelated publications.
# A part holds a random share of what one study measured.

# Series 1
# Target: Histone acetyltransferase KAT6A, winged helix 1, GST fusion (KAT6A, Homo sapiens, UniProt Q92794, residues 1-85)
# Method: protein binding microarray
# Molecule type: double-stranded DNA, one strand shown
# Sample: in vitro
# Tested at: not given
# Setting: 8-mer, flanks averaged, mean of 2 arrays, mostly near background
# Baseline: not given
# Reading: higher = stronger binding
# Construct (chain): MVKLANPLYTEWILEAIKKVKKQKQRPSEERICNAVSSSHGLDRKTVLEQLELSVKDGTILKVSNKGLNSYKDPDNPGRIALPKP
Sequence,E-score
CCAATCTC,-0.347
GATTGTCA,-0.05
ATACGTAC,0.0129
AGAAAATC,-0.102
GCGCCCTA,0.29
CCTGACGA,-0.234
GCCTACGA,0.0214

# Series 2
# Target: PABPC1L2, full length, GST fusion (mouse, UniProt A0ABA7IW68)
# Method: RNAcompete
# Molecule type: RNA
# Sample: in vitro
# Tested at: 20 nM
# Setting: 7-mer, probes averaged, single round
# Baseline: mean of 7-mers
# Reading: higher = stronger binding
# Construct (chain): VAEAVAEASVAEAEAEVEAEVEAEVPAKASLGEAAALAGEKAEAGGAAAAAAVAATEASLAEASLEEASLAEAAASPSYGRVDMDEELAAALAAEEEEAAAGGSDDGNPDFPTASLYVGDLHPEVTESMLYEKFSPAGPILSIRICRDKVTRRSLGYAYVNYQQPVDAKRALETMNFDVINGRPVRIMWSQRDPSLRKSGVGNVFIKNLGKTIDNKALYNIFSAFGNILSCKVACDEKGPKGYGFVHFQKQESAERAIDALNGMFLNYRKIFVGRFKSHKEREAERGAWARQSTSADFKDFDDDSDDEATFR
Sequence,7-mer Z-score
CUUAGAC,-0.199
CGGAACA,0.468
CCUGGCG,-0.229
CACUGUC,-0.226
GGCGUCG,-0.197
CCCAAUA,-0.0554

# Series 3
# Target: Interferon regulatory factor 7, full length, phosphomimetic (IRF7, Homo sapiens, UniProt Q92985, residues 1-503, S101K/S471D/S472D/S475D/S476D/S477D/S483D/S484D/S487D)
# Sequence of UniProt Q92985 (whole entry, unmodified, looked up): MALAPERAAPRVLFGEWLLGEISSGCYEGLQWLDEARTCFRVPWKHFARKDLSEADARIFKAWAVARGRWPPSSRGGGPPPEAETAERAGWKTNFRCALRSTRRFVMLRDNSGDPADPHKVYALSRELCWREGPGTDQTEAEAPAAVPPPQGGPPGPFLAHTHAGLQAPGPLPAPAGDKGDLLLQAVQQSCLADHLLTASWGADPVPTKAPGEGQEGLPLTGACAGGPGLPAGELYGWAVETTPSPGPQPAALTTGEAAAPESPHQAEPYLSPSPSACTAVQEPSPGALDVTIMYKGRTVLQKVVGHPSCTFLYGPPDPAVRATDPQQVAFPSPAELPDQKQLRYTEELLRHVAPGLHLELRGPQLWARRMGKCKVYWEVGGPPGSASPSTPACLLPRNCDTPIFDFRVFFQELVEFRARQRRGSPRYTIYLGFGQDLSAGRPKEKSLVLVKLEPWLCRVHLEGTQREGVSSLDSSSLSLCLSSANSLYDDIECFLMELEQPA
# Method: protein-binding microarray
# Molecule type: double-stranded DNA, one strand shown
# Sample: in vitro
# Tested at: 250 nM
# Setting: 60-bp whole probe
# With: salmon DNA 0.4 mg/ml
# Baseline: random background probes
# Reading: higher = stronger binding
# Constant ends, left off below: GCCTAGCAC … GTCTTGATTCGCTTGACGCTGCTG
Sequence,log fluorescence [z-score]
TCAGGTTTCGGGTATCGGTTAGTGCTA,8.02
CACGATTTCAGACTGGAGACGTGCTAG,0.267
TTAGGACTGGGTCGCGGTTAGTGCTAG,0.45
TTAGGTTCCCTTTTCCTTTAGTGCTAG,4.5
TTAGGACTGGACACAGGGTTAGTGCTA,-0.561
TTTTTGGATGCTGGAAAAATGTGCTAG,0.642
TTAGATATCGGCTTTCGATTAGTGCTA,0.662
TTAGTTATCCTTCTCCTTTAGTGCTAG,0.76

# Single results of other studies
Substance,target,test,system,conditions,scale,measurement,result
"PhoQ, residues 284 288 289 292 302 303 TSTLRA","PhoP, residues 12 14 15 18 19 TQAIL (Escherichia coli, UniProt P23836)","Sort-seq, refers to: YFP reporter",E. coli,"PhoQ-PhoP variant library, with: 10 µM Mg2+","baseline: high Mg2+ state, higher = stronger signaling",fold induction,16.3

# Repeated from above (series 3):
Sequence,log fluorescence [z-score]
TTAGGTTCCCTTTTCCTTTAGTGCTAG,4.5
TTAGGACTGGGTCGCGGTTAGTGCTAG,0.45
TTAGATATCGGCTTTCGATTAGTGCTA,0.662
